Results from different studies.
Numbered parts are unrelated; each lists some results of a single study.

Sample 1 — technique: protein binding microarray; form: double-stranded DNA, one strand shown; sample: in vitro; tested at: not given; relative to: not given; direction: higher = stronger binding
Target: Histone acetyltransferase KAT6A, both winged helices, GST fusion (KAT6A, Homo sapiens, UniProt Q92794, residues 1-181)
Notes: 8-mer, flanks averaged, mean of 2 arrays, mostly near background
Construct (chain): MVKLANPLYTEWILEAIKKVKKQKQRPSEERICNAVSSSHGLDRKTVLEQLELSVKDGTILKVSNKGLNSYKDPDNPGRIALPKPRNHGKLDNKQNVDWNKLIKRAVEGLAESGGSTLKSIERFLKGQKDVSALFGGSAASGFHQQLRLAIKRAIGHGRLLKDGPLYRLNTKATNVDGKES
Sequence | E-score
TCTGCAAA | -0.133
AAACATGA | 0.0412
AAGCAGGT | -0.139
ATACAAGG | -0.0997
TACTCGAA | -0.041
CAACCCAA | -0.245
GTATACTA | -0.143
TCAGTAAA | 0.0261
AAGGACTG | -0.172
ATTGGGGG | -0.177
AAACCTCA | -0.0597
CGTTCTTC | 0.0916
AAGGTGGG | -0.226
CTTAGTGC | -0.19
TGTGTAAA | -0.0565
TAATTCGA | -0.124
GCTCGCGA | 0.22
GTTTTAAA | -0.141
AAGTATAC | -0.0271
GGCATTAA | -0.05

Sample 2 — technique: protein-binding microarray; form: double-stranded DNA, one strand shown; sample: in vitro; tested at: 250 nM; notes: 60-bp whole probe; together with: salmon DNA 0.4 mg/ml; relative to: random background probes; direction: higher = stronger binding; shared flanks, not repeated: GCCTAGCAC … GTCTTGATTCGCTTGACGCTGCTG
Target: Interferon regulatory factor 7, full length, phosphomimetic (IRF7, Homo sapiens, UniProt Q92985, residues 1-503, S101K/S471D/S472D/S475D/S476D/S477D/S483D/S484D/S487D)
Sequence of UniProt Q92985 (whole entry, unmodified, looked up): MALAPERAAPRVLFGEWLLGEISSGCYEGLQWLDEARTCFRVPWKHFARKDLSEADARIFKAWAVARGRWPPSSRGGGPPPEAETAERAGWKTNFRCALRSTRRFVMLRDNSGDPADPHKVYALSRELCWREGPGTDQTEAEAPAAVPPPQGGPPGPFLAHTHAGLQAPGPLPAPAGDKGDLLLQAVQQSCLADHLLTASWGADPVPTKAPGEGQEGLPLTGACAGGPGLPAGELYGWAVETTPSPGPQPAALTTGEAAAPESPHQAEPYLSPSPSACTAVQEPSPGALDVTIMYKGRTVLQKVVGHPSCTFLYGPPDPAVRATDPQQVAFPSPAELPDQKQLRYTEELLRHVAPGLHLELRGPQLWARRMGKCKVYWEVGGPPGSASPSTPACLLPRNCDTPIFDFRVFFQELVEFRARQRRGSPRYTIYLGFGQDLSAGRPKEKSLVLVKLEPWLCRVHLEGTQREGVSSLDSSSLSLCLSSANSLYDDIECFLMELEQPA
Sequence | log fluorescence
TCATAACTCATTCTCCAACTGTGCTAG | 0.686 z-score
GACGGTCTAGGACTGGGGACGTGCTAG | -0.129 z-score
GACGCACTGAGTATCGAGACGTGCTAG | 0.155 z-score
TCAACTCTGTCCCTCTGACTGTGCTAG | 0.0337 z-score
GACGGACTGGGGATTGGGGACGTGCTA | -0.371 z-score
AACGATATCGGGTATCGAGACGTGCTA | 0.18 z-score
CTTGCTTTGTGCCTAGCCTTGTGCTAG | 0.2 z-score
TTAGTACTGCTACTGCTTTAGTGCTAG | -0.278 z-score
GACGGTTTCGACTTTCGGGGCGTGCTA | 10.5 z-score
GACGGACTGGACTTTCAGGACGTGCTA | -0.7 z-score
TCAATCTTAGATATTAAACTGTGCTAG | 0.17 z-score
GACGCTTTCGGGTTTCGGGACGTGCTA | 3.93 z-score
TTAGTTATCGGTATCGGTTAGTGCTAG | 2.04 z-score
TTAGGTTTCCTTCTCCTTAAGTGCTAG | 2.92 z-score
GACCGTTTCCTTTTCCTGACGTGCTAG | 4.46 z-score
TTCACTTTCTTTACTTCACTGTGCTAG | 1.11 z-score
TCAGATTTCAGTTTCGATTAGTGCTAG | 8.99 z-score
GACGATATCGGGTTTCGAGATGTGCTA | 3.98 z-score

Sample 3 — technique: RNA Bind-n-Seq; form: RNA; sample: in vitro; tested at: 200 nM; notes: whole 134-nt RNA, ends assumed; together with: 150 mM LiCl; relative to: input library; direction: higher = stronger binding; library: 7-deaza-guanosine replaces G
Target: Ras GTPase-activating protein-binding protein 1, full length (G3BP1, Homo sapiens, UniProt Q13283)
Sequence of UniProt Q13283 (whole entry, looked up): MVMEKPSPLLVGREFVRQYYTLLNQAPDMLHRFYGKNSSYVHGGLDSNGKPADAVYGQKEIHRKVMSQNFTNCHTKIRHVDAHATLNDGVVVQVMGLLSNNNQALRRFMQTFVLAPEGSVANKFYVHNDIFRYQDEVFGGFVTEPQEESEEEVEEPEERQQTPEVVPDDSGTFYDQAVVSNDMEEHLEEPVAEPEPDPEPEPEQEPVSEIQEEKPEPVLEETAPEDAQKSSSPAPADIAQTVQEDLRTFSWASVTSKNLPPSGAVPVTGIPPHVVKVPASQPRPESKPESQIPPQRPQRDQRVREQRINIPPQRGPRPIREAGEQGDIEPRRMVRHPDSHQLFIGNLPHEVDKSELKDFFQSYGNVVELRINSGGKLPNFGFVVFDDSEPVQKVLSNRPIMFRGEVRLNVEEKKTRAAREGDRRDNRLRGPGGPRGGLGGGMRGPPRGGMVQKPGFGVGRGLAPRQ
Sequence | log2 enrichment
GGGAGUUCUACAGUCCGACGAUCUCCUCAAGUCCUGUGCUACACAUCGUAUGUACCGAAUCGGAGGAGGGAGGGAAAGUAUUAUGUUACGCCGUUCGGAUCUGCACUUCCAGCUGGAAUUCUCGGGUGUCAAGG | -1.13
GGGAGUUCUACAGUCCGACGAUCCUUGACCCUCAACACCAACCAUGGGCAUAUCCUGGUGGAUUACUCCAAGAACCUGGUGACGGAGGACGUGAUGCGGAUGCUGGUGGACUUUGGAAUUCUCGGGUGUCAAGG | -1.86
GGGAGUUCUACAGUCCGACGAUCACCAUGCAGGUGGGCGUCUUUGGGAAGUGGGGCAAGGGGGGGAUAGGGAGGGGGGUAACACUUUGGGAACAGGUGGUCCCAGGUCGUUUCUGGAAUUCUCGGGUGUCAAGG | 0.545
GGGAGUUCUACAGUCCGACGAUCCCUCAAGUCCUGUGCUACACAUCGUAUGUACCGAAUCGGGGCGGCGGGGCGGGAAAGUAUUAUGUUACGCCGUUCGGAUCUGCACUUCCAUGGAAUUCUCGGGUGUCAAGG | -0.346
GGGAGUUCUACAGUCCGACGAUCAAGUCCUGUGCUACACAUCGUAUGUACCGAAUCGGUUUUUGGUUUUUGGGUUUUUGGAAAGUAUUAUGUUACGCCGUUCGGAUCUGCACUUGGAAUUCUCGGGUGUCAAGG | -0.371
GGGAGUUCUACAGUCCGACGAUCCACAGACAACACGCACCCACACAGACACAGAGGGAAGGGGUUGGGAUGGGGACAGGGUGCACAGCAGGGCGGGGUAGGGCCCCAGCCCCUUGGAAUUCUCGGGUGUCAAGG | 0.365
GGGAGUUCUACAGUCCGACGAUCAAGUCCUGUGCUACACAUCGUAUGUACCGAAUCGGGUUUGGGUUUUUGGGAAAGGGAAAGUAUUAUGUUACGCCGUUCGGAUCUGCACUUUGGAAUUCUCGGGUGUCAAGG | 0.151
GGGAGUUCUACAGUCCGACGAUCUCAAGUCCUGUGCUACACAUCGUAUGUACCGAAUCGGUUUGGUUUUUUUGGUGGAAAGUAUUAUGUUACGCCGUUCGGAUCUGCACUUCCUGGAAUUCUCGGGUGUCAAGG | -0.389
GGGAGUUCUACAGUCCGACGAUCCACAGACAACACGCACCCACACAGACACAGAGGGAAGGGGUUGGGAUGGGGACAGGCUGCACAGCAGGGCGGGGUAGGACCCCAGCCCCUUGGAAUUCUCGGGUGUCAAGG | -0.0104
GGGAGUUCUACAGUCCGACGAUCCCUCAAGUCCUGUGCUACACAUCGUAUGUACCGAAUCGGAAGGGAAGGAAGGAAAGUAUUAUGUUACGCCGUUCGGAUCUGCACUUCCAGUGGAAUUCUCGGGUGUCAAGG | -1.28
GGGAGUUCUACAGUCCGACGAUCUAACUUUAGAGGAGGAUCUGAUGGAUAUGGCAGUGGACGUGGAUUUGGGGAUGGCUAUAAUGGGUAUGGAAGAGGACCUGGAGGUGGCAAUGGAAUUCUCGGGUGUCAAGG | -0.311

Sample 4 — technique: RNA Bind-n-Seq; form: RNA; sample: in vitro; tested at: 365 nM; relative to: no-protein control; direction: higher = stronger binding
Target: RNA binding protein fox-1 homolog 2, RRM domain, GST-SBP tag (RBFOX2, Homo sapiens, UniProt O43251-10, residues 100-194)
Notes: natural RNA segment, single round, ends assumed
Sequence | RBNS enrichment (R)
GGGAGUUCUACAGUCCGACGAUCCUCGGCGCUCCUUGUGUGGAGGCCAUUCUUUUUUCAAUGGGUAUCACAUGGUUUUGCCAUCCCUAAGUGAACAUCAUUCUGUCUUUGCUCAUGAGCUGGUCUAAUGCAGUUGGAAUUCUCGGGUGCCAA | 0.403
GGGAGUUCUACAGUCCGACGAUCUUGUGACACCGGAGUCUGAGGUGGAACAGAGCCAGUGUCAGGAAAGCCCCUCAGCAAGAAAGAAGAGUCAUUGCUGGUUCCCAGGGGCAGUCACAGAGGAUGAAAUACCAUGGAAUUCUCGGGUGCCAA | 0.502
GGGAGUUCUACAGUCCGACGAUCUUAAAAGACUAGCAUCAGUAGGCUCUAUUCUUUUGUAUUUGGGUUAGAAAUUUAAUAUAAUCAGCCUUAACUAUGUUGUCUAACUCCUAAAGUACUUUGUUAUAAAGUCUUGGAAUUCUCGGGUGCCAA | 1.09
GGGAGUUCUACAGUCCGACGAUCUCUAGAUAAGCUAGGAUAUUAAUCCAGAGUUACAUUACUGAGAAUUGAGUAGUAUAAGUAGGAUGUUUUUAUUACUUGGUCAUAAUGAAAAUAAUUUGUAAAAUGUCAUUUGGAAUUCUCGGGUGCCAA | 9.55
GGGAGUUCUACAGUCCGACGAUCUUUUGCAGAGGAACCUGCCAGAGAUUUAUUGGCUGGUCAGUCUCUUGUGAAAUAGUAUCAUGUGAGAAACAGUUUGUAGAAAAAAACUAUACCUGGGAAGACCUUUGCAAUGGAAUUCUCGGGUGCCAA | 0.584
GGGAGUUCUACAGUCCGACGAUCCUGGGCUCCCCCCAGUGGGAUGGGACAGGGAGGCCACACGCACUGGUGCCAAAACCAGGCCUCUGCUGCCGCCCUUCCUGGAGGCUGCCUAUGUUGGGGGGGACCCUGCCUGGAAUUCUCGGGUGCCAA | 0.482
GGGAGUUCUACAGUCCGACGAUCAACUCUAGAUUUUUUGGUAAACUAUCAAUCUGUAUAUGUUGUAAUUAAGUGUCUAAUGCUAGGAGUUUAUUGGAAGUGUUUAAGAAAUAAAAGAACUCAACUUUUACACUUGGAAUUCUCGGGUGCCAA | 0.553
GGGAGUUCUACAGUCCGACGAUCCUUCAGAUUCGAAGUGGGAGGCAACUCAAUGUGCCUGGGGCUCGCCAUGGGCCCACAGAGUCUCGCUAUCAUCCCCAGCGUCGCAGUGUGGCAGGUGUUUGUAGGCUGUGUGGAAUUCUCGGGUGCCAA | 0.39
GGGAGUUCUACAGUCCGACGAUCUGGGGGGUGGGGAACCUCCUUCCACCUGCGCUUCCUUGAGGGGACCAGAGAGCCCUUGGUCCCAGGUCUCUUGAGCUUUUGUGUCAUGUUGCAGCAGAGUGAAGAUGGGGUGGAAUUCUCGGGUGCCAA | 0.587
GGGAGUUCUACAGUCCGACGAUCUAUGAAAAUGAGCCCUGGCUCCCACCUGUUUCUGGAAGACUGCUCCCGGCCCGCCUGCCCAGACUGAUGAGCACAUCUCUCUGCCCUCUCCCUGUGUUCUGGGCUGGGGCUGGAAUUCUCGGGUGCCAA | 0.494
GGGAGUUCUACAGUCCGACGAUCAAAACUUUAGUGCCAAAAUAGUGGAACUAUUUUGUCAUCUUUUGAGAAAAAAAUAUACAAAGAAGUCAUCUUUUCAUUAAGUGGAUUCCCUGGUUCCUUUCCAGCUGGUUUGGAAUUCUCGGGUGCCAA | 0.451
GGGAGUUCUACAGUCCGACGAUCUCACUGGGAUGUGUUUCCCCAGUCAAGGAACAGGGGAUCUUCAGAGUCAUGAAUGUUUUCUUGCCAGGGUCAGUGUUCCCAGGACCUUAGUGCAUGGUCGGGGCAGGAACUGGAAUUCUCGGGUGCCAA | 4.94

A few entries again (sample 1):
Sequence | E-score
CGTTCTTC | 0.0916
AAGGTGGG | -0.226
CTTAGTGC | -0.19
TGTGTAAA | -0.0565
TAATTCGA | -0.124
GCTCGCGA | 0.22
GTTTTAAA | -0.141
AAGTATAC | -0.0271
